Measurements from different studies.
Numbered parts are unrelated; each lists some results of a single study.
Chain of UniProt Q13976 (whole entry, looked up): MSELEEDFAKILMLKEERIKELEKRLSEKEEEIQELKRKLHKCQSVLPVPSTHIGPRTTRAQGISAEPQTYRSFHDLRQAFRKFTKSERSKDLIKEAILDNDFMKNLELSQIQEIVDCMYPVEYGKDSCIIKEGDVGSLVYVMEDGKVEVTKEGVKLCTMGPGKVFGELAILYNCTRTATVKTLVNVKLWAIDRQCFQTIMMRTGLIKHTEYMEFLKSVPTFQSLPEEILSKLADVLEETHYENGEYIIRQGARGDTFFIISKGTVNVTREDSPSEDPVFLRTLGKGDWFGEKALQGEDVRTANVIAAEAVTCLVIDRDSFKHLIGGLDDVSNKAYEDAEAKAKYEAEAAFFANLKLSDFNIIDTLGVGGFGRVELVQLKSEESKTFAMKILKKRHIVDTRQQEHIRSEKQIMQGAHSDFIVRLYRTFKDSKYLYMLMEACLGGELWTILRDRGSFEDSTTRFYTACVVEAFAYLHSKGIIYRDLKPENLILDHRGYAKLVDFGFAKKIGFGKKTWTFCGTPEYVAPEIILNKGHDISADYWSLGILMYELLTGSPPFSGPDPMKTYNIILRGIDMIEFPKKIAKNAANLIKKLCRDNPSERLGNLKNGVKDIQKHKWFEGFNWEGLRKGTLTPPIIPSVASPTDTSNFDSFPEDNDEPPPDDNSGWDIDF
Chain of UniProt Q16584 (whole entry, looked up): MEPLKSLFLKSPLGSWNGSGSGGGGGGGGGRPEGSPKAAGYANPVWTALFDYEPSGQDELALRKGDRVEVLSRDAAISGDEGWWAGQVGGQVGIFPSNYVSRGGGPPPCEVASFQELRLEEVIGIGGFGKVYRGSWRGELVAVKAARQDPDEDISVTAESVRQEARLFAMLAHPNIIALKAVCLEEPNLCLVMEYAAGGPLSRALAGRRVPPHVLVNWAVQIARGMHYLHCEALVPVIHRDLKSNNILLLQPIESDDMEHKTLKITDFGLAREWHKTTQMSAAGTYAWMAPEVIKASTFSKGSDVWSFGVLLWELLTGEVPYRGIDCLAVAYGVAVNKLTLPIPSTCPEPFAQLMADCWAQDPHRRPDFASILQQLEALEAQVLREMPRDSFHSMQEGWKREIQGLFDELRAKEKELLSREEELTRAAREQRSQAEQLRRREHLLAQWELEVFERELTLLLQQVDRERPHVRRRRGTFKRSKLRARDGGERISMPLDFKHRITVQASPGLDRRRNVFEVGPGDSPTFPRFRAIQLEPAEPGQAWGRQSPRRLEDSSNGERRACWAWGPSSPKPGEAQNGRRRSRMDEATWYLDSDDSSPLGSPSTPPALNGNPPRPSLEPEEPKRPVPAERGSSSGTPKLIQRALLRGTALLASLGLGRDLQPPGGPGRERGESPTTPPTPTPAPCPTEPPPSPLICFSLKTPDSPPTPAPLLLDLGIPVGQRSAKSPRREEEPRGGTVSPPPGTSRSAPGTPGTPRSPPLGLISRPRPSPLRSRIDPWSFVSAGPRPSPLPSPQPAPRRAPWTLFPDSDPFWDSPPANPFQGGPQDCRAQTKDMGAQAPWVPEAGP
Chain of UniProt Q9NYY3 (whole entry, looked up): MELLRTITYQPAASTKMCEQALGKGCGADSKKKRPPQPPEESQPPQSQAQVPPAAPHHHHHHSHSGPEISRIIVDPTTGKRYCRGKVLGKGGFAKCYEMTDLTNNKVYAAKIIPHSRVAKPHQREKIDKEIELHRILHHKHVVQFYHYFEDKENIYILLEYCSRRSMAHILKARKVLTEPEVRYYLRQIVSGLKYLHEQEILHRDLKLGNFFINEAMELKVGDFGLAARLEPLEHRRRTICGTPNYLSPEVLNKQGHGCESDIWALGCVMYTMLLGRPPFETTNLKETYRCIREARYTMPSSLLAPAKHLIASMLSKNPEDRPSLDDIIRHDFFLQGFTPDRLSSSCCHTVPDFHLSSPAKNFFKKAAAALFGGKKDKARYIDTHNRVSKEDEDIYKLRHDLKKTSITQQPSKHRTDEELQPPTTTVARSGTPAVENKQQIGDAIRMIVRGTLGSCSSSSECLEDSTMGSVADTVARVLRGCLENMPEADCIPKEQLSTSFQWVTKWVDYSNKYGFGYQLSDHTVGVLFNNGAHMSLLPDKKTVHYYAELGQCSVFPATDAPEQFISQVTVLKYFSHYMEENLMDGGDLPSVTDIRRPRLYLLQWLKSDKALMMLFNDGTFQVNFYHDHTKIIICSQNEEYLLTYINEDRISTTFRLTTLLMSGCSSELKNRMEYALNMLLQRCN
Chain of UniProt P53778 (whole entry, looked up): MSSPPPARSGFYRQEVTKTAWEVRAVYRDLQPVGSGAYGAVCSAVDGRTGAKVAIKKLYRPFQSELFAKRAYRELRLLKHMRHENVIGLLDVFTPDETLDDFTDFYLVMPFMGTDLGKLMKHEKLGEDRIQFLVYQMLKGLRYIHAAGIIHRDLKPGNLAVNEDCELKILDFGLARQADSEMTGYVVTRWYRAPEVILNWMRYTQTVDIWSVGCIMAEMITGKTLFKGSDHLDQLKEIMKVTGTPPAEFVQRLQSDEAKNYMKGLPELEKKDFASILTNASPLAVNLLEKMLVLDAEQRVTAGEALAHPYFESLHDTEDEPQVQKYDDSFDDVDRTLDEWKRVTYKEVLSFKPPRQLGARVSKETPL
Chain of UniProt Q00532 (whole entry, looked up): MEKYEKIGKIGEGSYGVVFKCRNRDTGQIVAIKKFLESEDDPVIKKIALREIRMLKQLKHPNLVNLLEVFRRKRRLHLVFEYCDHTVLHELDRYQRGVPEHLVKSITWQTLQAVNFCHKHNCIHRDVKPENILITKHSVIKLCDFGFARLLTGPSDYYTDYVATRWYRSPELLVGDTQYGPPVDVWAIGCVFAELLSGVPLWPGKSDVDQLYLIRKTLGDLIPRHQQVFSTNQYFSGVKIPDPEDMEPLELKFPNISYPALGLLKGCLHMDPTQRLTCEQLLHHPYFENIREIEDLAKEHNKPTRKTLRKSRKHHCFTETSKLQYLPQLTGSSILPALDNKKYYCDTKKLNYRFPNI
Chain of UniProt Q9NWZ3 (whole entry, looked up): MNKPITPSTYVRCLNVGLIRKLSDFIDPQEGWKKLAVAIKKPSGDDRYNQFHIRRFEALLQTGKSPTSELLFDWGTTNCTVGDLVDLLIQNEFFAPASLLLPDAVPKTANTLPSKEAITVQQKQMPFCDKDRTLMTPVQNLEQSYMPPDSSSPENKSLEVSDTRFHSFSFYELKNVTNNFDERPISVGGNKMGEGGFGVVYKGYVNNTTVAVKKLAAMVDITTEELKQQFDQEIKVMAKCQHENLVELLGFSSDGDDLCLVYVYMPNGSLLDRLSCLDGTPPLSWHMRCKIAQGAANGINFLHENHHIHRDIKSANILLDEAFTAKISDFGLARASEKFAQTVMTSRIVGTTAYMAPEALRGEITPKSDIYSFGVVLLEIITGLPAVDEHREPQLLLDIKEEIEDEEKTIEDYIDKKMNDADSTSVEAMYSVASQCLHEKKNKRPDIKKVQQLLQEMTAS
Chain of UniProt P51812 (whole entry, looked up): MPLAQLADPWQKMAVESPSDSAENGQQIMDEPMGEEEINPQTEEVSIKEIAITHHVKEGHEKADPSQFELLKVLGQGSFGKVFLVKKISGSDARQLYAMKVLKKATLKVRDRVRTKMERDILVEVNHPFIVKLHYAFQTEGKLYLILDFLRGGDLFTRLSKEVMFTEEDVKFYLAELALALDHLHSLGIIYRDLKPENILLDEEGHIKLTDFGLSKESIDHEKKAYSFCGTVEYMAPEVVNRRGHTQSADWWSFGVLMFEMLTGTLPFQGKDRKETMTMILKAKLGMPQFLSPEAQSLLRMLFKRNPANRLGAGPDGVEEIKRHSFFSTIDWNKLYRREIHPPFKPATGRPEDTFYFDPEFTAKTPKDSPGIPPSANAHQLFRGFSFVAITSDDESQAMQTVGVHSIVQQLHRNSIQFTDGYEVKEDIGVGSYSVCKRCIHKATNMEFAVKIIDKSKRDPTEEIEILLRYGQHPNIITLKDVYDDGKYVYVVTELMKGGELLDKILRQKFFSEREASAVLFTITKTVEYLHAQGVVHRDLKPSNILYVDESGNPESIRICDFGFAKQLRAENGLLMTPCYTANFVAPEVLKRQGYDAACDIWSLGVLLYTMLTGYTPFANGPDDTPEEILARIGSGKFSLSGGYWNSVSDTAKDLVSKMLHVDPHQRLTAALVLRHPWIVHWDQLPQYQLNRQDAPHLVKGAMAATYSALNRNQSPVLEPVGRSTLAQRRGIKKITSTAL
Chain of UniProt P51957 (whole entry, looked up): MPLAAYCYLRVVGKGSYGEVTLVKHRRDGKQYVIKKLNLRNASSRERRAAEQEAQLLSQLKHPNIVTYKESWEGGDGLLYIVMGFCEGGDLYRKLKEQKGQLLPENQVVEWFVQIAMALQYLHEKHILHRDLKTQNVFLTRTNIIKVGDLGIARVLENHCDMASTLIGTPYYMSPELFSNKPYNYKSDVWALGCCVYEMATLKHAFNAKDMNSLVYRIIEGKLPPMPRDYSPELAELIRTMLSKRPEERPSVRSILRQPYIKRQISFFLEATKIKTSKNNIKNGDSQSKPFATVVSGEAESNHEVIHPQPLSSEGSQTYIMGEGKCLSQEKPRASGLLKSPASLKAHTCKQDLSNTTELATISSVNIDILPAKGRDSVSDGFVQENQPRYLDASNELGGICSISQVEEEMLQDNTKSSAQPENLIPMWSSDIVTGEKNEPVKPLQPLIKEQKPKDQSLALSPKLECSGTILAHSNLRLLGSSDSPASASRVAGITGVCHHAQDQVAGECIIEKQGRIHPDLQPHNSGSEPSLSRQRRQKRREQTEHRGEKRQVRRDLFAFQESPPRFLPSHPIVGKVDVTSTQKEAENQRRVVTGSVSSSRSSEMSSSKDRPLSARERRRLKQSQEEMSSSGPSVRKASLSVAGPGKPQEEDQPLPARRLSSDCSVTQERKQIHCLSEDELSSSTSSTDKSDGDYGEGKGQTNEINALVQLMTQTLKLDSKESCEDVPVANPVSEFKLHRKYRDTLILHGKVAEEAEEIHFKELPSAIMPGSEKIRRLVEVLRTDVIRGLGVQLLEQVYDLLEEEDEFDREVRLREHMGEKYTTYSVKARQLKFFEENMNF

Series 1
Cell line: mouse MPNST tumor cells
Method: high-content nuclear imaging
Measured: cell number
Concentration: 10 µM
Time: 12 h
Setting: mean of 2 replicates
Reference: plate mean
Direction: higher = more cells
With `CN1CCN(c2c(F)cc3c(=O)c(C(=O)O)cn(CCF)c3c2F)CC1` the nuclei count was 1.03 z-score.
With `CN(C)CCC(c1ccc(Br)cc1)c1ccccn1` (stereo not shown) the nuclei count was 1.39 z-score.
For `Nc1nc(NCC2CCC(CNS(=O)(=O)c3cccc4ccccc34)CC2)nc2ccccc12` (stereo not shown), the nuclei count was -5.83 z-score.
For `CC(CNC1CCCCC1)OC(=O)c1ccccc1` (stereo not shown), the nuclei count was 0.38 z-score.
The nuclei count of `Nc1ccccc1NC(=O)c1ccc(CNC(=O)OCc2cccnc2)cc1` is reported as -0.304 z-score.

Series 2
Host: human
Matrix: microsomes or S9
Concentration: 2 µM
Time: 0.5 h
The remaining compound of `CC(C)c1c(Cl)nc(N(C)C)nc1N1CCN(S(C)(=O)=O)CC1` is reported as 18.6%.
For `COc1ccc(OC)c(NC(=O)C2Cn3cccc3C(=O)N2C)c1` (stereo not shown), the remaining compound was 54.6%.
`Cc1ccccc1NCc1cc(=O)n2nc(-c3ccccc3C)nc2[nH]1` gave a remaining compound of 4.39%.
With `c1ccc(-c2nc3cccnc3nc2N2CCCCC2)cc1` the remaining compound was 5.75%.
`Cc1oc(=O)n(Cc2cc(C(N)=O)oc2C(C)(C)C)c1C` has a remaining compound of 86.7%.

Series 3
SMILES: CC(=O)c1c(NS(C)(=O)=O)c2cc(-c3ccc(Cl)cc3)c(-c3ccc(Cl)cc3Cl)nc2n(C)c1=O
Observed: cell-free assay
Method: competition with immobilised ligand
Concentration: 1 µM
For NEK10 (Homo sapiens, UniProt Q6ZWH5): remaining binding read 99%.
It gave 96% for remaining binding (PLK2 (Homo sapiens, UniProt Q9NYY3)).
It gave 72% for remaining binding (NLK (Homo sapiens, UniProt Q9UBE8)).
For LATS2 (Homo sapiens, UniProt Q9NRM7): remaining binding read 78%.
PRKCD (Homo sapiens, UniProt Q05655) — remaining binding: 98%.
It gave 77% for remaining binding (STK38 (Homo sapiens, UniProt Q15208)).
The remaining binding was 75% (PRKG1 (Homo sapiens, UniProt Q13976)).
It gave 100% for remaining binding (EPHA5 (Homo sapiens, UniProt P54756)).
For STK3 (Homo sapiens, UniProt Q13188): remaining binding read 100%.
For MET (Homo sapiens, UniProt P08581): remaining binding read 100%.
For CDKL1 (Homo sapiens, UniProt Q00532): remaining binding read 91%.
For SGK3 (Homo sapiens, UniProt Q96BR1): remaining binding read 79%.
For MAP3K11 (Homo sapiens, UniProt Q16584): remaining binding read 100%.
For TNK1 (Homo sapiens, UniProt Q13470): remaining binding read 100%.
It gave 75% for remaining binding (Ribosomal protein S6 kinase alpha-3, N-terminal kinase domain (RPS6KA3, Homo sapiens, UniProt P51812)).

Series 4
SMILES: CN1CCN(c2ccc3nc(-c4c(N)c5c(F)cccc5[nH]c4=O)[nH]c3c2)CC1
Observed: enzyme activity
Action: inhibitor
Concentration: 0.5 µM
Reference: control
MAPK12 (Homo sapiens, UniProt P53778) — remaining activity: 101%.
AKT3 (Homo sapiens, UniProt Q9Y243) — remaining activity: 88%.
For IRAK4 (Homo sapiens, UniProt Q9NWZ3): remaining activity read 31.8%.
It gave 83.6% for remaining activity (NEK4 (Homo sapiens, UniProt P51957)).
It gave 81.2% for remaining activity (PRKG1 (Homo sapiens, UniProt Q13976)).
MAP3K10 (Homo sapiens, UniProt Q02779) — remaining activity: 91.4%.

Some of these lines once more (series 3):
It gave 96% for remaining binding (PLK2 (Homo sapiens, UniProt Q9NYY3)).
It gave 72% for remaining binding (NLK (Homo sapiens, UniProt Q9UBE8)).
